Published values pooled from the literature.
Protocols differ between the studies behind these lines. “And” joins repeats or separate records; there may be more than shown. ± gives the spread as reported.

SMILES | cell line | test | conditions | how to read | quantity | result
O=C1OCC2=C1C(c1cccc(Br)c1)C1=C(N2)C(=O)c2ccccc2C1=O (stereo not shown) | SK-LU-1 cells | annexin V/PI | 0.32 µM, 24 h |  | early apoptotic cells | 14%
CC(C)=CCc1c(O)cc2c(c1O)C(=O)OC2 | HepG2, palmitic acid-induced insulin resistance |  | 2.5 µM, 24 h |  | glucose consumption | 8.96 ± 0.9 mM
COCCNCC(=O)N(CCCCN)CC(=O)N(CC(=O)N(CC(=O)N(CCCCN)CC(=O)N[C@@H](CCCCN)C(=O)N[C@H](CCCCN)C(=O)N[C@@H](CCSC)C(=O)NCCCC[C@H](NC(=O)[C@H](CCSC)NC(=O)[C@@H](CCCCN)NC(=O)[C@H](CCCCN)NC(=O)CN(CCCCN)C(=O)CN(C(=O)CN(Cc1ccc2c(c1)OCO2)C(=O)CN(CCCCN)C(=O)CNCCOC)[C@H](C)c1ccccc1)C(N)=O)[C@H](C)c1ccccc1)Cc1ccc2c(c1)OCO2 | H358 | scratch | 48 h |  | minimum migration-inhibiting concentration | 3 µM
COc1cc(CNC(=O)C[C@H](C)CCC=C(C)C)ccc1O | HCC 2998 | SRB | 10 µM, 48 h |  | growth percent | 108%
[Ru+2].c1ccc(-c2cccc(-c3ccccn3)n2)nc1.c1ccc2nc(-c3nc4ccccc4s3)ccc2c1.c1cnccn1 | HL-60 |  |  | relative to: dark IC50 over light IC50 | phototoxicity index | > 3.6
COc1cc(CNC(=O)C[C@H](C)CCC=C(C)C)ccc1OCc1cn(-c2ccc(C#N)cc2)nn1 | OVCAR-8 ovarian cancer cells | SRB | 10 µM, 48 h |  | growth percent | 60%
O=C(NCCCCc1ccccc1)n1c(=O)oc2cc(-c3ccc(F)cc3)ccc21 | SW-403 and RAW264.7 |  | 0.1 to 20 µM, 3 h |  | ceramide d18:1/16:0 level | increased
Nc1c(S(=O)(=O)O)cc(Nc2cccc(S(N)(=O)=O)c2)c2c1C(=O)c1ccccc1C2=O | primary mouse articular chondrocytes | real-time PCR, refers to: Prg4 | 25 µM, micromass culture |  | mRNA level | increased
COc1cc(CNC(=O)C[C@H](C)CCC=C(C)C)ccc1OCc1cn(-c2ccc(Cl)cc2Cl)nn1 | OVCAR-8 ovarian cancer cells | SRB | 10 µM, 48 h |  | growth percent | 29.3%
COc1ccc(CN(C(=O)c2sc3ccccc3c2Cl)C2CCC(N)CC2)cc1-c1ccc(C#N)cc1 (stereo not shown) | C3H10T1/2 | Hh signalling reporter, agonist |  | relative to: Hh protein | Amax | ~35%
CC(=O)Nc1ccc(OC(=O)CCC(=O)[O][Pt-2]23([O]C(=O)CCC(=O)Oc4ccc(NC(C)=O)cc4)([NH2+][C@@H]4CCCC[C@H]4[NH2+]2)[O]C(=O)C(=O)[O]3)cc1 | 4T1 | annexin V/PI | 2 µM, 24 h |  | apoptotic cells | > 50%
COc1cc(CNC(=O)C[C@H](C)CCC=C(C)C)ccc1OCc1cn(-c2cccc(Cl)c2)nn1 | OVCAR-4 ovarian cancer cells | SRB | 10 µM, 48 h |  | growth percent | 106%
O=Cc1c(O)ccc2ccccc12 | HUVEC | RNA sequencing, refers to: CYP26B1 | 75 µM, 24 h | relative to: DMSO | log2 fold change | -2.88
COc1ccc([C@@H]2CC(=O)c3c(O)cc(O[C@@H]4O[C@H](CO[C@@H]5O[C@@H](C)[C@H](O)[C@@H](O)[C@H]5O)[C@@H](O[C@H]5O[C@H](CO)[C@@H](O)[C@H](O)[C@H]5O)[C@H](O)[C@H]4O)cc3O2)cc1O | MRC5 | trypan blue exclusion | 150 µg/mL, 72 h |  | cell count | 13300 ± 608
C[n+]1cn(C2OC(COP(=O)([O-])OP(=O)(O)OP(=O)(O)OCC3OC(n4cnc5c(=O)[nH]c(N)nc54)C(O)C3O)C(O)C2O)c2nc(NCc3cc(-c4ccccc4)no3)[nH]c(=O)c21 (stereo not shown) | HEK293 transfected with capped mRNA | luciferase expression |  | relative to: m7GpppG-capped mRNA | relative protein expression | 1.64 and 1.6
CC(=O)OC[C@H]1O[C@@H](Sc2nc3c4cnn(C(=O)CNc5ccc(C)cc5)c4ncn3n2)[C@H](OC(C)=O)[C@@H](OC(C)=O)[C@@H]1OC(C)=O | HCT cells | annexin V-FITC/PI flow cytometry | concentration not given, 48 h |  | late apoptotic cells | 12.9%
CC(Cc1ccc(Cl)cc1)=C(c1ccc(Cl)cc1)c1ccc(OCCN(C)C)cc1 | M14 | cell growth or viability, SRB |  |  | GI50 | 5.19 µM
COc1cc(CNC(=O)C[C@H](C)CCC=C(C)C)ccc1OCc1cn(-c2ccc(Cl)c(Cl)c2)nn1 | OVCAR-4 ovarian cancer cells | SRB | 10 µM, 48 h |  | growth percent | 53.4%
CC1CCCN(CCCNC(=O)C2=Cc3sc4c(c3CS2)CCCC4)C1 (stereo not shown) | COLO 320 |  | 20 µM, 24 h | relative to: vehicle | esterified cholesterol | 2.7 fold

A few entries again:
SMILES | cell line | test | conditions | how to read | quantity | result
CC1CCCN(CCCNC(=O)C2=Cc3sc4c(c3CS2)CCCC4)C1 (stereo not shown) | COLO 320 |  | 20 µM, 24 h | relative to: vehicle | esterified cholesterol | 2.7 fold
CC(Cc1ccc(Cl)cc1)=C(c1ccc(Cl)cc1)c1ccc(OCCN(C)C)cc1 | M14 | cell growth or viability, SRB |  |  | GI50 | 5.19 µM
